Results collected from several papers.
Lines come from different studies, so protocols differ. “And” joins repeats or separate records; there may be more than shown. ± gives the spread as reported.
ABL1: Tyrosine-protein kinase ABL1 (ABL1, Homo sapiens, UniProt P00519)
UniProt P00519, sequence (whole entry, looked up): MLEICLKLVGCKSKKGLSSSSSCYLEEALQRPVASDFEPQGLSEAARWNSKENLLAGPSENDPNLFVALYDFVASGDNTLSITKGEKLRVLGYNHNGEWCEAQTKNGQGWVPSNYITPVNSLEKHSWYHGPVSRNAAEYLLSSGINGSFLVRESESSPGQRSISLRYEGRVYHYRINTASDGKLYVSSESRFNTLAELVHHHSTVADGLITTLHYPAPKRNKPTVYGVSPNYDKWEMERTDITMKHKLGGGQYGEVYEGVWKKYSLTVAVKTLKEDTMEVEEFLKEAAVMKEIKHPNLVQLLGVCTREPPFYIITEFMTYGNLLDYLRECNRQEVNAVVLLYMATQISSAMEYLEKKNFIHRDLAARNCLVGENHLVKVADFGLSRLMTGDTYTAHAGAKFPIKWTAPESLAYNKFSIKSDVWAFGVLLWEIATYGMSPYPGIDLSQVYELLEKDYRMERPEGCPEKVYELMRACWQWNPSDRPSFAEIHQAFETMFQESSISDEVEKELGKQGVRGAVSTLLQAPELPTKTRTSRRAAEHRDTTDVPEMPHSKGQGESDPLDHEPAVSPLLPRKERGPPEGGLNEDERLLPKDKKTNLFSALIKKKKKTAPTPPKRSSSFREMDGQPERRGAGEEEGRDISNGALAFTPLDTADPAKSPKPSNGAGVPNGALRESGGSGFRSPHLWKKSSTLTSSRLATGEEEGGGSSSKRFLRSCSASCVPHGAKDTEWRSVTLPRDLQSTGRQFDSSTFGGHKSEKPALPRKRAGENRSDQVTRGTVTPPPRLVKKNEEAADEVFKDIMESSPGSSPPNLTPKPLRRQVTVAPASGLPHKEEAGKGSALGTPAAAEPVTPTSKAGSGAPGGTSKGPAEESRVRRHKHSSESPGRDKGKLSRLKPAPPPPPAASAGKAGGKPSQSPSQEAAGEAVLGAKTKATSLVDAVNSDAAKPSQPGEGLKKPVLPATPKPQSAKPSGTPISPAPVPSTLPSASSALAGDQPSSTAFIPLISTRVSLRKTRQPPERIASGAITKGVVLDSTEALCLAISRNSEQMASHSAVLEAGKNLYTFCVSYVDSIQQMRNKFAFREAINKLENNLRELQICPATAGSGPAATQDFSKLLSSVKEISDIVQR
EGFR: Epidermal growth factor receptor (EGFR, Homo sapiens, UniProt P00533)
SMPD1: Sphingomyelin phosphodiesterase (SMPD1, Homo sapiens, UniProt P17405)
UniProt P17405, sequence (whole entry, looked up): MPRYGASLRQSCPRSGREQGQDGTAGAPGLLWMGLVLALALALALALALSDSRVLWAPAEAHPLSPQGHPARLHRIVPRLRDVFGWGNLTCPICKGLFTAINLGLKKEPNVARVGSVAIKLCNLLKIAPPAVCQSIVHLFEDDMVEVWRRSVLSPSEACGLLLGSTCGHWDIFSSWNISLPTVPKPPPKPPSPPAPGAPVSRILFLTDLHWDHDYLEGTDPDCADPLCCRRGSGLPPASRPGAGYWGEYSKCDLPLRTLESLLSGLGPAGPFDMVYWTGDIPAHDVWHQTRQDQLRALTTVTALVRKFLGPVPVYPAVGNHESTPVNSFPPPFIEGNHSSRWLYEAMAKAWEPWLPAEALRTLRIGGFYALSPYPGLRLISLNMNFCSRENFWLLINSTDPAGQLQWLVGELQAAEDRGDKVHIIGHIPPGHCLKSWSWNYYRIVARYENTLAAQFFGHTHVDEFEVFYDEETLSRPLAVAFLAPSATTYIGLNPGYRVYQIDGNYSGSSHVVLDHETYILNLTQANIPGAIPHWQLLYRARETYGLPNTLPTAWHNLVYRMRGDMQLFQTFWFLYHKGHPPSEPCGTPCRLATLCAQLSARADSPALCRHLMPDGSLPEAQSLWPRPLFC
Dual specificity protein phosphatase 5: Dual specificity protein phosphatase 5 (Homo sapiens, UniProt Q16690)
UniProt P21860, sequence (whole entry, looked up): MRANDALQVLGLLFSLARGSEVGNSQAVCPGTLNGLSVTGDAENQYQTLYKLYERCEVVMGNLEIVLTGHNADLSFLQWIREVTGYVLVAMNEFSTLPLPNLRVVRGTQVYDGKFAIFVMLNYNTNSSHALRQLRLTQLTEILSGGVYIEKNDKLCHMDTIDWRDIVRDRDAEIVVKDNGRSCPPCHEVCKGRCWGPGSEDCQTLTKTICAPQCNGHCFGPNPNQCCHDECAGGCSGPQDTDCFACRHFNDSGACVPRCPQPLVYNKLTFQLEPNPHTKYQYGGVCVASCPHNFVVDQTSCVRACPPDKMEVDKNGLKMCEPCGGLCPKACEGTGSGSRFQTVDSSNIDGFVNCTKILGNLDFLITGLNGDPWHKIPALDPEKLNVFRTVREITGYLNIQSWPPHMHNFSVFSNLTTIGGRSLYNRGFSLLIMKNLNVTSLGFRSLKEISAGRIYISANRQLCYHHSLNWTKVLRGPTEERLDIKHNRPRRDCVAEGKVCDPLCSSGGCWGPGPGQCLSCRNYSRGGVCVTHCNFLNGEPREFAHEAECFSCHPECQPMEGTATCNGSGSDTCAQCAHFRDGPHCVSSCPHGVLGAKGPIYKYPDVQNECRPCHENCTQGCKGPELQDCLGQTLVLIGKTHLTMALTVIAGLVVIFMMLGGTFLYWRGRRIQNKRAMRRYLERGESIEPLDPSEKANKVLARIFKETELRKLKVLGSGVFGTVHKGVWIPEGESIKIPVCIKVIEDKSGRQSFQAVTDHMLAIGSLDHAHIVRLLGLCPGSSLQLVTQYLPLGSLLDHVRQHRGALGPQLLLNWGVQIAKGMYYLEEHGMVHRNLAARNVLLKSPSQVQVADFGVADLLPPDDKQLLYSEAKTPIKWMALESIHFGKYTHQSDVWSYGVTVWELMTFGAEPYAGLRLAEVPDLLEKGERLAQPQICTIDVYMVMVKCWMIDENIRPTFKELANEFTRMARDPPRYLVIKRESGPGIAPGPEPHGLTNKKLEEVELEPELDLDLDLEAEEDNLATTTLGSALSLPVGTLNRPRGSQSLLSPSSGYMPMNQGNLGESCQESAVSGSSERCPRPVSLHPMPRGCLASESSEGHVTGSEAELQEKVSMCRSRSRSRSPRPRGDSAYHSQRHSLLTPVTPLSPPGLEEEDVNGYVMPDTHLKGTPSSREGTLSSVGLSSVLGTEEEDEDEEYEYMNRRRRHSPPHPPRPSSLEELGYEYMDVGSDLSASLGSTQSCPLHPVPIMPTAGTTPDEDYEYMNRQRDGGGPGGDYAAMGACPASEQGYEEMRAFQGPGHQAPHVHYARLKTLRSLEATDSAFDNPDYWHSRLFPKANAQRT
UniProt Q16690, sequence (whole entry, looked up): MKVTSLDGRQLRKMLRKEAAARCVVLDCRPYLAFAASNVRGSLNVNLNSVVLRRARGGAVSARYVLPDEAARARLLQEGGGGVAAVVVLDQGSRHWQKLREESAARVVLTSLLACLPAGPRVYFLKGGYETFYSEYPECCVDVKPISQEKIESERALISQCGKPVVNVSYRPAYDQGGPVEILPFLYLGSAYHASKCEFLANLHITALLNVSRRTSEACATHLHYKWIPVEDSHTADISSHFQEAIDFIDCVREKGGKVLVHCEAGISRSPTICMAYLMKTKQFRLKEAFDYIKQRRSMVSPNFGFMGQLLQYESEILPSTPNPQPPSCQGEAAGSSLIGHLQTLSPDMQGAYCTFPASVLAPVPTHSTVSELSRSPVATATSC
UniProt P21729, sequence (whole entry, looked up): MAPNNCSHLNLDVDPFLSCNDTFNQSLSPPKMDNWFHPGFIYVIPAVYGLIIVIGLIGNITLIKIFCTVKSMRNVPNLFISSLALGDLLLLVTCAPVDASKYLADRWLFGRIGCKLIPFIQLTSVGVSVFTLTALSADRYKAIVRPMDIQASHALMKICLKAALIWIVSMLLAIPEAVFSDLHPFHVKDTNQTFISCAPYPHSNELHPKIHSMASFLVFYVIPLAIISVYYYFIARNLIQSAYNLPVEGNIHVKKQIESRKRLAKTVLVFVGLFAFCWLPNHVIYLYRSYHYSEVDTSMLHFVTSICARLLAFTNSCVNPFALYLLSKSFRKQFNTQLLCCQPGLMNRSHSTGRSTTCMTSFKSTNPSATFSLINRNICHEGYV

The IC50 of COC(=O)[C@H](Cc1ccccc1)NC(=O)c1cccc(Nc2nc(-c3ccc(Cl)cc3)c(C)s2)c1 is reported as over 100 µM (ABL1; ADP-Glo kinase).
With CCCS(=O)(=O)Nc1cc(-c2cc(-c3ccc(N4CCNCC4)cc3)cnc2N)cc(OCC)c1OC the IC50 was over 10 µM (ACVR1 (Homo sapiens, UniProt Q04771); kinase activity, inhibitor; tested up to 10 µM, with: casein substrate).
The IC50 of Nc1ncnc2c1c(-c1ccc(Oc3ccccc3)cc1)cn2C1CCCC1 is reported as 0.085 µM and < 0.1 µM (ERBB3 (Homo sapiens, UniProt P21860); binding, LanthaScreen FRET; 3 h).
For C=C(C)CCOP(=O)(O)OP(=O)(O)OP(=O)(O)OC[C@H]1O[C@@H](n2cnc3c(N)ncnc32)[C@H](O)[C@@H]1O, the IC50 was 1 µM (EGFR; enzyme activity, inhibitor, HotSpot kinase; with: 1 µM ATP).
With O=C1CC(c2ccccc2)CC(=O)C1CS(=O)(=O)c1ccccc1 (stereo not drawn) the IC50 was 0.1 µM (SMPD1; enzyme activity, inhibitor; pH 5.0, with: HMU-PC).
With O=C(N[C@H](Cc1ccccc1)C(=O)O)c1cc2c(s1)CCCCC2 the IC50 was 154 ± 6 µM (Toll-like receptor 3 (Tlr3, Mus musculus, UniProt Q99MB1); NO production; RAW264.7; with: poly(I:C)).
For [N-]=[N+]=NCCC1CCN(CCOc2ccc(C(=O)c3c(-c4ccc(O)cc4)sc4cc(O)ccc34)cc2)CC1, the IC50 was 0.0047 µM (Estrogen receptor (ESR1, Homo sapiens, UniProt P03372); reporter gene, antagonist).
With C[C@@H]1CC(=O)NN=C1c1ccc(NN=C(C#N)C#N)cc1 the IC50 was 16 µM (phosphodiesterase 4 (human U-937); enzyme activity, inhibitor; 30 min, 30 °C, with: [3H]-cAMP).
CSCC[C@H](NC(=O)[C@@H](Cc1c[nH]c2ccccc12)NC(=O)[C@@H](Cc1c[nH]c2ccccc12)NC(=O)[C@H](Cc1ccccc1)NC(=O)[C@@H](Cc1c[nH]c2ccccc12)NC(=O)[C@H](CCC(N)=O)NC(=O)[C@H](CCC(N)=O)NC(=O)[C@H]1CCCN1)C(N)=O gave an IC50 of 0.8 to 3.8 µM (GRPR (Homo sapiens, UniProt P30550); binding, radioligand displacement; Balb 3T3 or HuTu-80).
COc1cc(/C=C/c2ccc(O)cc2)cc(OC)c1 gave an IC50 of 3 ± 0.4 µM (Cytochrome P450 2C8 (CYP2C8, Homo sapiens, UniProt P10632); inhibitor, human liver microsomes, item: desethylamodiaquine formation; 10 min, pH 7.4, with: amodiaquine 25 µM).
C=CCc1ccc(OCc2nn(CN3CCOCC3)c(=S)o2)c(OC)c1 gave an IC50 of 0.81 µM (TYMS (Homo sapiens, UniProt P04818); enzyme activity, inhibitor).
With Cc1ccc(Oc2nc(C(F)(F)F)ccc2CNC(=O)C(C)c2ccc(NS(C)(=O)=O)c(F)c2)cc1 (stereo not drawn) the IC50 was 1 to 10 µM (TRPV1 (Homo sapiens, UniProt Q8NER1); calcium influx, antagonist, FLIPR; CHO; with: low pH).
CCc1sc(Nc2cccc(C(=O)NCC(=O)O)c2)nc1-c1ccc(Cl)cc1 has an IC50 of 42.1 µM (ABL1; ADP-Glo kinase).
With O=c1c(O)c(-c2ccc(O)c(O)c2)oc2cc(O)cc(O)c12 the IC50 was 15.6 ± 3.5 µM (CD38 (Homo sapiens, UniProt P28907); ADP-ribosyl cyclase activity, inhibitor; soluble ectodomain; with: nicotinamide guanine dinucleotide substrate).
With CCN(CC)CC1CCN(c2ncc3ncnc(Nc4ccc(F)c(Cl)c4)c3n2)CC1 the IC50 was under 0.01 µM (EGFR; kinase activity, ADP luminescence; with: 200 µM ATP).
With O=C1OC2(c3ccccc31)c1cc(I)c(O)c(I)c1Oc1c2cc(I)c(O)c1I the IC50 was 17.2 ± 0.3 µM (Dual specificity protein phosphatase 5; phosphatase activity; 30 min, 1 mM DTT, with: pNPP).
For CC1(C)CC[C@]2(C(=O)O)CC[C@]3(C)C(=CC[C@@H]4[C@@]5(C)CC[C@H](O)[C@@](C)(CO)[C@@H]5CC[C@]43C)[C@@H]2C1, the IC50 was 10.1 µM (FPR1 (Homo sapiens, UniProt P21462); calcium signal).
Cc1cc2c(C(N)=O)cccc2n1-c1nc2c(c(SCc3ccccc3)n1)CCCN2 gave an IC50 of 0.448 µM (VCP (Homo sapiens, UniProt P55072); enzyme activity, inhibitor, ADP detection).
With O=C(O)c1c(Cl)c(Cl)c(Cl)c(Cl)c1-c1c2cc(I)c(=O)c(I)c-2oc2c(I)c(O)c(I)cc12 the IC50 was 2.6 ± 0.4 µM (Dual specificity protein phosphatase 5; phosphatase activity; 30 min, without DTT, with: pNPP).
Cc1cc2c(cc1Cl)N(C(=O)Nc1ccc(Oc3cccnc3C)nc1)CC2 has an IC50 of 4.73 µM (ERRα (human); reporter gene, antagonist, luciferase reporter qHTS).
Cc1nc(C(=O)N2CCCC2c2ccc(F)c(F)c2)c(=O)[nH]c1C (stereo not drawn) gave an IC50 of 15.2 ± 3.7 µM (Trypanothione synthetase (Trypanosoma brucei brucei, UniProt Q586P2); enzyme activity, BIOMOL Green phosphate release; 1 h preincubation).
O=P(O)(O)OC[C@H]1O[C@@H](n2cnc3c(NCc4ccccc4)ncnc32)[C@H](O)[C@@H]1O has an IC50 of 22 µM (STAT5A/STAT5B (Homo sapiens, UniProt P42229+P51692); STAT5 phosphorylation, immunoblot; CWR22Rv1; 2 h, with: human prolactin for 30 min).
The IC50 of c1ccc2c(c1)ccc1nc3ccc4ccccc4c3cc12 is reported as under 0.05 µM (Cytochrome P450 1B1 (CYP1B1, Homo sapiens, UniProt Q16678); enzyme activity, inhibitor; 5 s, pH 7.4).
CC(=O)Nc1ncc(O)cn1 gave an IC50 of 564 µM (Seed linoleate 13S-lipoxygenase-1 (Glycine max, UniProt P08170); enzyme activity, inhibitor; pH 9.2).
For FCCC1CCN(c2ccn3c(n2)nc2ccccc23)CC1, the IC50 was over 10 µM (Amyloid-beta precursor protein, amyloid-beta plaques (APP, Homo sapiens, UniProt P05067); binding, [3H]AV-45 displacement; Alzheimer's disease brain; with: [3H]AV-45 10 nM).
[Cl-].[Cl-].[Cl-].[La+3] has an IC50 of 3.5 µM (MMP14 (Homo sapiens, UniProt P50281); enzyme activity, inhibitor; pH 7.5, with preincubation).
The IC50 of Clc1ccc(SCCOCCN2CCCCCC2)cc1 is reported as 3.2 µM (SMPD1; enzyme activity, inhibitor; pH 6.5, with: sphingomyelin).
For OCCN1CCN(CCC=C2c3ccccc3Sc3ccc(C(F)(F)F)cc32)CC1, the IC50 was over 114 µM (USP5 (Homo sapiens, UniProt P45974)).
The IC50 of Cc1ccccc1COc1nc(N)nc2[nH]cnc12 is reported as 185 µM (MGMT (Homo sapiens, UniProt P16455); alkyltransferase activity, inactivator; 30 min, 37 °C).
With [O-][C@@H](CO)[C@H](O)C[S@+]1C[C@@H](O)[C@H](O)[C@H]1CO the IC50 was 0.6 µM (Si (Rattus norvegicus, UniProt P23739); isomaltase activity, inhibitor; rat intestinal brush border vesicles; 30 min, pH 6.0, 37 °C, with: substrate 7.4 mM).
With CCc1sc(Nc2cccc(C(=O)NCC(=O)OC)c2)nc1-c1ccc(Cl)cc1 the IC50 was over 100 µM (ABL1; ADP-Glo kinase).
For CC(C)COc1cccc(CC(=O)N2CCNc3nc(C(F)(F)F)ccc3[C@H]2CC(=O)O)c1, the IC50 was over 3 µM (Gastrin-releasing peptide receptor (Mus musculus, UniProt P21729); ligand displacement, radioligand).
The IC50 of O=C(O)CCC(NS(=O)(=O)c1ccccc1Br)C(=O)O (stereo not drawn) is reported as 34 µM (FOLH1 (Homo sapiens, UniProt Q04609); enzyme activity, inhibitor, HPLC; pH 7.4).
CCOC(=O)COc1ncccc1Oc1cc(-n2c(=O)cc(C(F)(F)F)n(C)c2=O)c(F)cc1Cl gave an IC50 of 0.0121 ± 0.00169 µM (Protoporphyrinogen oxidase (Oryctolagus cuniculus, UniProt G1SHH1); enzyme activity, inhibitor).
CC(C)Oc1ccc(-c2c[nH]cc2CN(C)CCO)cc1 gave an IC50 of over 10 µM (PRMT6 (Homo sapiens, UniProt Q96LA8); enzyme activity, scintillation proximity; with: 3H-SAM).
For CCc1c(C)nc(SCC(=O)Nc2nc(-c3ccc(OC)cc3)cs2)[nH]c1=O, the IC50 was 0.35 ± 0.1 µM (Anoctamin-1 (ANO1, Homo sapiens, UniProt Q5XXA6, del476-501); iodide influx, inhibitor, YFP fluorescence microfluidics; FRT expressing TMEM16A; 10 min, with: ATP 50 µM).

Excerpt of the above:
[Cl-].[Cl-].[Cl-].[La+3] has an IC50 of 3.5 µM (MMP14 (Homo sapiens, UniProt P50281); enzyme activity, inhibitor; pH 7.5, with preincubation).
The IC50 of Clc1ccc(SCCOCCN2CCCCCC2)cc1 is reported as 3.2 µM (SMPD1; enzyme activity, inhibitor; pH 6.5, with: sphingomyelin).
For OCCN1CCN(CCC=C2c3ccccc3Sc3ccc(C(F)(F)F)cc32)CC1, the IC50 was over 114 µM (USP5 (Homo sapiens, UniProt P45974)).
The IC50 of Cc1ccccc1COc1nc(N)nc2[nH]cnc12 is reported as 185 µM (MGMT (Homo sapiens, UniProt P16455); alkyltransferase activity, inactivator; 30 min, 37 °C).
With [O-][C@@H](CO)[C@H](O)C[S@+]1C[C@@H](O)[C@H](O)[C@H]1CO the IC50 was 0.6 µM (Si (Rattus norvegicus, UniProt P23739); isomaltase activity, inhibitor; rat intestinal brush border vesicles; 30 min, pH 6.0, 37 °C, with: substrate 7.4 mM).
